Experimental data of several laboratories.
± gives the spread as reported.

| SMILES | cell line | test | conditions | scale | measurement | result |
| --- | --- | --- | --- | --- | --- | --- |
| Cn1c(Nc2nc3ccc(C(F)(F)F)cc3s2)nc2cc(C(=O)NCCOCCO)ccc21 | SH-SY5Y | RNA-seq, measured: FLT1 mRNA | 5 µM, 5 h | relative to: untreated cells | fold change | 3.85 |
| O=P1(C2CCCCC2)CCCCC1 | PC-3 | Annexin V-FITC/PI flow cytometry | IC50, 72 h |  | late apoptotic cells | 3.45% |
| Nc1ccccc1NC(=O)c1ccc(CNc2nccc(-c3cccnc3)n2)cc1 | BT-16 | cell viability, MTT | 10 µM, 72 h |  | inhibition | 91.4% |
| COc1cc(-c2nncn2C)ccc1Nc1ncc2cc(C)nc(NCC(C)(C)C)c2n1 | CAL-51 | cell growth | 72 h |  | GI50 | 32 nM |
| COc1cc(/C=C/C(=O)N2CCC=CC2=O)cc(OC)c1OC | BT-16 | cell viability, MTT | 10 µM, 72 h |  | inhibition | 92% |
| Cc1cc(Nc2ncc(Cl)c(Nc3ccccc3S(=O)(=O)C(C)C)n2)c(OC(C)C)cc1C1CCNCC1 | CLB-BAR | phosphoproteomics LC-MS/MS, measured: PTPN11 phosphorylation | 200 nM, 60 min | relative to: untreated | log2 fold change | -2.17 |
| O=c1[nH]nc(OCCCc2ccc(Cl)cc2)c(NCc2cccnc2)c1Br | HEK-293T | RNA-seq GSEA, measured: HALLMARK_HEME_METABOLISM | concentration not given | direction not given | normalized enrichment score | 1.5 |
| COc1cc([C@@H]2c3cc4c(cc3[C@@H](O[C@@H]3O[C@@H]5CO[C@@H](C)O[C@H]5[C@H](O)[C@H]3O)[C@H]3COC(=O)[C@H]23)OCO4)cc(OC)c1O | HepG2 spheroids | planimetry | 17 µM, 96 h | relative to: solvent control | spheroid surface area reduction | 9.51% |
| CC1(C)Oc2ccc(CC3=C(c4ccc(O)cc4)C(=O)OC3=O)cc2C[C@@H]1O | RPTEC | qPCR | 10 µg/mL, 24 h, basal, no LPS |  | COX-2 mRNA level | no effect |
| O=C(/C=C/C=C/C=C/C1CCCCC1)NC1=C[C@@](O)(/C=C/C=C/C=C/C(=O)NC2=C(O)CCC2=O)[C@@H]2O[C@@H]2C1=O | DMS-53 | cell growth, CellTiter-Glo | 78 h |  | GI50 | 13800 nM |
| Cn1cc(-c2ccc(-c3cncc(Cl)c3N3CCC4(CCNC4=O)CC3)cc2)cn1 | COLO 205 | microarray, measured: CDKN1A | concentration not given, 2 h, gene set p21 | relative to: untreated cells | fold change in expression | 1.51 |
| COc1cc(/C=C/C(=O)N2CCC=CC2=O)cc(OC)c1OC | MDA-MB-468 | quantitative RT-PCR, measured: ANPEP | 30 µM, 8 h | relative to: untreated cells | mRNA level | 82.1 ± 8.3% |
| COc1ccc(NC(=S)N/N=C/c2cccc3cc4ccccc4nc23)cc1 | HeLa | annexin V/PI | concentration not given, 48 h, dosed at IC50, added: N-acetylcysteine |  | late apoptotic cells | 9.78% |
| COC(=O)Nc1nc2ccc(C(=O)c3ccccc3)cc2[nH]1 | BT-16 | cell viability, MTT | 10 µM, 72 h |  | inhibition | 87.7% |
| COC(=O)[C@]12CCC(C)(C)C[C@H]1[C@H]1C(=O)C=C3[C@@]4(C)C=C(C#N)C(=O)C(C)(C)[C@@H]4CC[C@@]3(C)[C@]1(C)CC2 | HepG2 | high content imaging, measured: DNA structure | 6 h, distribution mode 2 |  | point of departure | 1.17 µM |
| Cl.O=C(Nc1ccccc1-c1cn2c(CN3CCNCC3)csc2n1)c1cnc2ccccc2n1 | BT-16 | cell viability, MTT | 10 µM, 72 h |  | inhibition | 95.2% |
| COc1cnc2cccc(N3CCc4c(cc(Cn5ccnc5C)cc4-c4cn(C)nc4C(F)(F)F)C3=O)c2c1 | NCI-H1437 | cell growth, inhibitor | 120 h |  | EC50 | > 30000 nM |
| C[C@]12CCCN1CC1=NNC(=O)c3cc(F)cc4[nH]c2c1c34 | OUMS-23 |  | added: temozolomide |  | EC50 | 200 nM |
| CCn1cc(-c2cc(Cn3ccoc3=N)cc3c2CCN([C@@H](C)c2cc(OC)ccn2)C3=O)c(C(F)(F)F)n1 | JVM-2 | cell growth, inhibitor | 120 h |  | EC50 | 1190 nM |
| CCCCc1nc(Cl)c(CO)n1Cc1ccc(-c2ccccc2-c2nn[nH]n2)cc1 | human PBMC | RNA-seq, measured: SMPDL3A mRNA | 10 µg/mL, 24 h | relative to: untreated control | log2 fold change | 1.86 |

Excerpt of the above:
| SMILES | cell line | test | conditions | scale | measurement | result |
| --- | --- | --- | --- | --- | --- | --- |
| COc1ccc(NC(=S)N/N=C/c2cccc3cc4ccccc4nc23)cc1 | HeLa | annexin V/PI | concentration not given, 48 h, dosed at IC50, added: N-acetylcysteine |  | late apoptotic cells | 9.78% |
